# Published values gathered from unrelated publications.
# Each numbered part is a random draw from the data of one study; scales do not carry over between parts. Several values in a cell are separate wells, animals, samples, runs or records.
# UniProt Q04771, sequence (whole entry, looked up): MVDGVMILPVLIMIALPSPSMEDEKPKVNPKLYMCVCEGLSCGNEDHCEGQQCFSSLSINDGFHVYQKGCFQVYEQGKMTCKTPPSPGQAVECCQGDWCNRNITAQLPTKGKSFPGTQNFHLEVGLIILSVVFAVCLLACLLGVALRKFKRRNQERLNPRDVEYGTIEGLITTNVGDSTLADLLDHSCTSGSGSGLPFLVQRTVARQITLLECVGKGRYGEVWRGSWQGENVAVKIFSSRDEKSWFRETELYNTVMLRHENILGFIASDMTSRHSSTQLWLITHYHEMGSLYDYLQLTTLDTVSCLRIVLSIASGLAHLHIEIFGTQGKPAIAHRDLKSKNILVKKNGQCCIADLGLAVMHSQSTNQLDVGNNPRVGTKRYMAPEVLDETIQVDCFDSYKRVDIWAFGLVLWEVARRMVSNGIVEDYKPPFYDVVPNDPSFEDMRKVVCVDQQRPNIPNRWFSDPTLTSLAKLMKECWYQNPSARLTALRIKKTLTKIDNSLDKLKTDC
# UniProt P04049, sequence (whole entry, looked up): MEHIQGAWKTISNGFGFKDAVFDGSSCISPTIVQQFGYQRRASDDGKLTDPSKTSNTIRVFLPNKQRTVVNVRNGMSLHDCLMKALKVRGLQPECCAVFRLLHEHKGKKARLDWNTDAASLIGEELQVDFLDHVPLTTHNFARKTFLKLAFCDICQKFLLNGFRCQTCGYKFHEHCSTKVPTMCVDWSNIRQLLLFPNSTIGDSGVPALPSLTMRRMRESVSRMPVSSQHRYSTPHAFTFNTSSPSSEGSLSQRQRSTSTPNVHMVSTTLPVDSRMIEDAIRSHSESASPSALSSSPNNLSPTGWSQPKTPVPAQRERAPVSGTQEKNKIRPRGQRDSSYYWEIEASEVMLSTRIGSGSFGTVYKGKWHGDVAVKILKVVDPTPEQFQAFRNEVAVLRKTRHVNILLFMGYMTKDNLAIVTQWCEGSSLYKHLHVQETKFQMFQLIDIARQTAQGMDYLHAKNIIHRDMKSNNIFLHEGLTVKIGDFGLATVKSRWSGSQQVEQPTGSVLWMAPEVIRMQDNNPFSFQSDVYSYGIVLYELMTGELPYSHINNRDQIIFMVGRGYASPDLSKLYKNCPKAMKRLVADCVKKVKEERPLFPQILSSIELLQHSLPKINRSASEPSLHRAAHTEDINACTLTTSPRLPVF
# UniProt P53350, sequence (whole entry, looked up): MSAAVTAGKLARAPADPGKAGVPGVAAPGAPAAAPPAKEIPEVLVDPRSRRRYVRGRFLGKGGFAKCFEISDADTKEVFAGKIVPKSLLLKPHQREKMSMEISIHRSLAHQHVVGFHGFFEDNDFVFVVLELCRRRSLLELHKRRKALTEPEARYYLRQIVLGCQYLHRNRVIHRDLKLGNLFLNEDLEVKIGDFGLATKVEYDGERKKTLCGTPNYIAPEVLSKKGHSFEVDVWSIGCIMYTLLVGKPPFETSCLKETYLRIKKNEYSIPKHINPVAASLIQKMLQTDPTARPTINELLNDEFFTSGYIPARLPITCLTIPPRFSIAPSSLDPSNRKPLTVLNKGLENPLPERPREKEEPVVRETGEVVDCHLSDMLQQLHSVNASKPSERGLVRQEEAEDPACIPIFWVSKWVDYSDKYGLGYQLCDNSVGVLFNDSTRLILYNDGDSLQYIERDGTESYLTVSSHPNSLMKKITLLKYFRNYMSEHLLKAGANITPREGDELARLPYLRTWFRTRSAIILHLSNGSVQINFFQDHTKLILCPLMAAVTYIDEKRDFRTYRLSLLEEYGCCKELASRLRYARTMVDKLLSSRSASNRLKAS
# UniProt Q7L7X3, sequence (whole entry, looked up): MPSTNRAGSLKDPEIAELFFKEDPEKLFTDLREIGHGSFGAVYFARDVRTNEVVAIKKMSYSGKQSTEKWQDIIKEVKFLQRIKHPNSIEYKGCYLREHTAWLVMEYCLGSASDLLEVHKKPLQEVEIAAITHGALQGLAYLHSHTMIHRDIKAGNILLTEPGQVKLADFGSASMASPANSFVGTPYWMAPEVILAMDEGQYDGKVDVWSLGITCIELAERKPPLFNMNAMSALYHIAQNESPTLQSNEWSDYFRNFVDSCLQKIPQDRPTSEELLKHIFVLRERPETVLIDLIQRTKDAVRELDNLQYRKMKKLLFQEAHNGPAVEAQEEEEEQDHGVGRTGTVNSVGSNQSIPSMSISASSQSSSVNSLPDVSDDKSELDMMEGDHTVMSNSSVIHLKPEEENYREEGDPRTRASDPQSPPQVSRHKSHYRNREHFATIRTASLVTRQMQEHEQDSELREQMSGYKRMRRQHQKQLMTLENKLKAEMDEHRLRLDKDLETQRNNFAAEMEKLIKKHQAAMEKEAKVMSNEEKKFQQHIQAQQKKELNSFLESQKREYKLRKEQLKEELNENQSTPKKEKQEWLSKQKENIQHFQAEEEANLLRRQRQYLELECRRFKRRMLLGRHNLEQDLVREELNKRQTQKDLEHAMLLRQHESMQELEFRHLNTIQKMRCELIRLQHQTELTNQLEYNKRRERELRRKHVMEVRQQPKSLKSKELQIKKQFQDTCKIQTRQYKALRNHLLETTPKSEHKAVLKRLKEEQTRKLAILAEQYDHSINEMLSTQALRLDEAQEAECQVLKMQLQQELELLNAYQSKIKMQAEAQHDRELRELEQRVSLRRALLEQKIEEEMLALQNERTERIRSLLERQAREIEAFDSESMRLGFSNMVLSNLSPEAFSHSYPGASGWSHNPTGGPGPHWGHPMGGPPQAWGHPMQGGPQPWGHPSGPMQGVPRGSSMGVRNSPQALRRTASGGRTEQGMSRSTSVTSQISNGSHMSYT
# UniProt P21802, sequence (whole entry, looked up): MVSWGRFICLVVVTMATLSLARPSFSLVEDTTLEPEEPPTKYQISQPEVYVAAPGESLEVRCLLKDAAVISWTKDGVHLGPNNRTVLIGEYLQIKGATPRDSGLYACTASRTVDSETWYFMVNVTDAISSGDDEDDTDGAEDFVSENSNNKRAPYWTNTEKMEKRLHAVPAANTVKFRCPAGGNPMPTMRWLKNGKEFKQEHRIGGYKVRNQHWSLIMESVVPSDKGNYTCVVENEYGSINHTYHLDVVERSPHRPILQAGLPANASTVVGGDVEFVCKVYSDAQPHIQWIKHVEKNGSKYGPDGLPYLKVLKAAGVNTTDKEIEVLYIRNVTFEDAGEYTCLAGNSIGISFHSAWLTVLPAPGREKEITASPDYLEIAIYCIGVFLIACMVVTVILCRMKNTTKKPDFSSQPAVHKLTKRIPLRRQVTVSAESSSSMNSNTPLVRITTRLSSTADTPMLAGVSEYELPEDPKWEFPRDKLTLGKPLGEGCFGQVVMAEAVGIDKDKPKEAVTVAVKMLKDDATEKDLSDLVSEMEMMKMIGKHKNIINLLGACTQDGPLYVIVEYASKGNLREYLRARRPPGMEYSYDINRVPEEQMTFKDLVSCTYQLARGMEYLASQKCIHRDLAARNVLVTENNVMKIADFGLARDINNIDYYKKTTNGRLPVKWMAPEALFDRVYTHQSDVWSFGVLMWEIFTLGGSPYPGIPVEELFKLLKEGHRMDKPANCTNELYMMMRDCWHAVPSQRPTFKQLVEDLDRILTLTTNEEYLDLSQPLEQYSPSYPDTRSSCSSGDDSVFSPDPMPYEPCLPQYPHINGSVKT
# UniProt Q99986, sequence (whole entry, looked up): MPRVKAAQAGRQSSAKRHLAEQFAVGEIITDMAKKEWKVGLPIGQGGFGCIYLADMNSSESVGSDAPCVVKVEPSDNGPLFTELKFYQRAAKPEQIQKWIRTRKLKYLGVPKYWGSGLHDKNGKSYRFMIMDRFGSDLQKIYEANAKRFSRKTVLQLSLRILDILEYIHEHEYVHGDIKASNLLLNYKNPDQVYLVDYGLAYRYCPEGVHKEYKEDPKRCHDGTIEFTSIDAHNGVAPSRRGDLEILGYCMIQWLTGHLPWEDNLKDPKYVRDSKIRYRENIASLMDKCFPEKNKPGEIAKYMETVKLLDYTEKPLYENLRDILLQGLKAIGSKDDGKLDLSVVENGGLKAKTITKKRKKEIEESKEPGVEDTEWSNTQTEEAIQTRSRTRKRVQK
# UniProt Q96BR1, sequence (whole entry, looked up): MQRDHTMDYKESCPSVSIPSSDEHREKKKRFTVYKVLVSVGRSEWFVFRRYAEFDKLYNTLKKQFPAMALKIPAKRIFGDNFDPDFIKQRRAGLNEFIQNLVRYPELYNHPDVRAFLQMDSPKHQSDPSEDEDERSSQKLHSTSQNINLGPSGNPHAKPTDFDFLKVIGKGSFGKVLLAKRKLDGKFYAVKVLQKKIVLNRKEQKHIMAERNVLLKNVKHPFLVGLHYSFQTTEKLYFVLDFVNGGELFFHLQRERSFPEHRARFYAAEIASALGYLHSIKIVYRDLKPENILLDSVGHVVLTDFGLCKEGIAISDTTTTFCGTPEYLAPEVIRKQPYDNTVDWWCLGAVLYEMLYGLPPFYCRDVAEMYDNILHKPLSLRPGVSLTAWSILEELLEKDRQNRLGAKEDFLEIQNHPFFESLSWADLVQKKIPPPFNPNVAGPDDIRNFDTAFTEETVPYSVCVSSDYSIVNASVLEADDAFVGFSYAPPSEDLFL

# Sample 1
# SMILES: CC(=O)N[C@@H](Cc1c[nH]c2ccccc12)C(=O)N[C@@H](CCC(=O)C=[N+]=[N-])C(=O)OC(C)C
system,conditions,remaining compound
"mouse, EL4 tumour homogenate","5 µM, 0.05 h, with: leupeptin 100 µM",0.151%
"mouse, EL4 tumour homogenate","5 µM, 0 h, with: pepstatin A 1.0 µM",100%
mouse intestinal homogenate,"5 µM, 0.05 h, with: leupeptin 100 µM",12.1%
mouse EL4 tumour homogenate,"5 µM, 0.05 h, no inhibitor",0.15% and 0.152%
"C57BL/6 CES1-/- mice, mouse plasma","20 µM, 60 min, 37 °C",94%
mouse intestinal homogenate,"5 µM, 0.05 h, with: Pefabloc 1 mM",22%
mouse intestinal homogenate,"5 µM, 1 h, with: E64 10 µM",0.188%
"mouse, EL4 tumour homogenate","5 µM, 0 h, with: Pefabloc 1 mM",100%
mouse intestinal homogenate,"5 µM, 0 h, with: pepstatin A 1.0 µM",100%
"mouse, EL4 tumour homogenate","5 µM, 0.05 h, with: protease inhibitor cocktail",85.7%
mouse intestinal homogenate,"5 µM, 1 h, with: bestatin 10 µM",0.4%
mouse EL4 tumour homogenate,"5 µM, 0.05 h, with: aprotinin 0.8 µM",0.207%
mouse EL4 tumour homogenate,"5 µM, 1 h, with: bestatin 10 µM",0.093%
mouse intestinal homogenate,"5 µM, 0.05 h, with: pepstatin A 1.0 µM",0.941%
mouse EL4 tumour homogenate,"5 µM, 1 h, with: E64 10 µM",0.161%
mouse intestinal homogenate,"5 µM, 0 h, with: PMSF 1.0 mM",100%

# Sample 2
# Species: human
# Sample: microsomes or S9
# Concentration: 2 µM
# Time: 0.5 h
Structure (SMILES),remaining compound
CC1=C(C(=O)NC2CCN(Cc3ccc(OCCCN(C)C)cc3)CC2)Cc2ccccc21,97.4%
Cc1cc(C)cc(-n2nc(C(=O)N(CC(N)=O)CC(C)C)cc2C)c1,40.6%
C=CCn1c(N)nnc1SC(C)C(=O)NC(N)=O (stereo not shown),90.8%
CSc1nnc(CNC(=O)OC(C)(C)C)n1-c1ccccc1,84.7%
Fc1ccc(-c2cc(-c3nc4c5c(ncn4n3)CCC5)[nH]n2)cc1,32.9%
O=C(NCC1(c2cccs2)CCOCC1)c1ccc2ncsc2c1,12.8%
CC(Sc1nnnn1C(C)C)C(=O)C12CC3CC(CC(C3)C1)C2 (stereo not shown),> 99%
Cc1cc(C)n2nc(C(=O)N3C[C@@H](N)C[C@H]3C(=O)NC(C)C)cc2n1,82.3%
CN(C)CCCOc1ccc(CN2CCC(NC(=O)c3ccc(Br)o3)CC2)cc1,97.9%
Cc1ccc(C(=O)c2[nH]c3ccccc3c2CC(=O)O)cc1,26.2%

# Sample 3
# Structure (SMILES): CC(C)c1nn(-c2c(Cl)cccc2Cl)c2nc(Cc3ccc(OCCO)cc3)[nH]c(=O)c12
# Effect on: enzyme activity
# Mode: inhibitor
# Concentration: 0.5 µM
# Reference: control
target,remaining activity
"Serine/threonine-protein kinase D3 (PRKD3, Homo sapiens, UniProt O94806)",92.3%
"Tyrosine-protein kinase HCK (HCK, Homo sapiens, UniProt P08631)",94.7%
"Insulin receptor-related protein (INSRR, Homo sapiens, UniProt P14616)",94.2%
"Fibroblast growth factor receptor 2 (FGFR2, Homo sapiens, UniProt P21802)",97.5%
"Mitogen-activated protein kinase kinase kinase kinase 5 (MAP4K5, Homo sapiens, UniProt Q9Y4K4)",89.9%
"RAF proto-oncogene serine/threonine-protein kinase (RAF1, Homo sapiens, UniProt P04049)",95.8%
"Serine/threonine-protein kinase TAO1 (TAOK1, Homo sapiens, UniProt Q7L7X3)",72.1%
"Dual serine/threonine and tyrosine protein kinase (DSTYK, Homo sapiens, UniProt Q6XUX3)",93.1%
"Activin receptor type-1 (ACVR1, Homo sapiens, UniProt Q04771)",94.7%
"Dual specificity tyrosine-phosphorylation-regulated kinase 2 (DYRK2, Homo sapiens, UniProt Q92630)",100%
"Serine/threonine-protein kinase VRK1 (VRK1, Homo sapiens, UniProt Q99986)",103%
"Mitogen-activated protein kinase kinase kinase 9 (MAP3K9, Homo sapiens, UniProt P80192)",95.7%
"BDNF/NT-3 growth factors receptor (NTRK2, Homo sapiens, UniProt Q16620)",101%
"Receptor-interacting serine/threonine-protein kinase 2 (RIPK2, Homo sapiens, UniProt O43353)",89.3%
"Serine/threonine-protein kinase Sgk3 (SGK3, Homo sapiens, UniProt Q96BR1)",92.6%
"Platelet-derived growth factor receptor beta (PDGFRB, Homo sapiens, UniProt P09619)",98.9%
"Serine/threonine-protein kinase PLK1 (PLK1, Homo sapiens, UniProt P53350)",93.9%
"Serine/threonine-protein kinase ULK1 (ULK1, Homo sapiens, UniProt O75385)",125%
"Phosphorylase b kinase gamma catalytic chain, liver/testis isoform (PHKG2, Homo sapiens, UniProt P15735)",102%

# Sample 4
# Target: Alpha-1D adrenergic receptor (ADRA1D, Homo sapiens, UniProt P25100)
# UniProt P25100, sequence (whole entry, looked up): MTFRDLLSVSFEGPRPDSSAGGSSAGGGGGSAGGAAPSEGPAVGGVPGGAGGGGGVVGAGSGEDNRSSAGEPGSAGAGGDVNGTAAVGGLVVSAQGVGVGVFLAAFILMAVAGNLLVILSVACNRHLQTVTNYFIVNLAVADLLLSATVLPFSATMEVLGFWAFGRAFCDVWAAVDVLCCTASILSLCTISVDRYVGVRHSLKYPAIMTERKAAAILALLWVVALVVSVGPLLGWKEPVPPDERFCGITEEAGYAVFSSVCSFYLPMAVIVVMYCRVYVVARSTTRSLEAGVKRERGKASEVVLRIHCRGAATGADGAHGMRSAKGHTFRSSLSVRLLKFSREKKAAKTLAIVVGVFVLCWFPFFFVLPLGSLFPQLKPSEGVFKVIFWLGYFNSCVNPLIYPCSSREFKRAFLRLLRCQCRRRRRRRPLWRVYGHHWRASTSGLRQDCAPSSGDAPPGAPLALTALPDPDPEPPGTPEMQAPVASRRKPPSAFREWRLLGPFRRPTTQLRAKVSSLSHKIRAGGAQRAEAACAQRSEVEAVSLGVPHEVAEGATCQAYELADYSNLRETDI
# Effect on: binding
# Method: radioligand binding
# Concentration: 10 µM
SMILES,inhibition [%]
COCCc1ccc(-c2c(C)nc3c(N4CCOCC4)ccnn23)cn1,15.3
Cc1nc(C2CCN(C(=O)c3ccc(OC(F)(F)F)cc3N)CC2)c2ncc(N3CCN(C)CC3)cc2n1,5.29
Nc1c(C(=O)NCc2ccc(C(=O)NCCCC3CCCCC3)cc2)cnn1-c1ccccc1,22
CN1C(=O)[C@@H](N2CCc3cn(Cc4ccccc4)nc3C2=O)COc2ccccc21,-0.3
COc1cccc(CNC(=O)c2nc3scc(COCc4ccc(C(=O)O)cc4)c3c(=O)[nH]2)c1,-5.4
Cc1nccc(COC(=O)N2C[C@@H]3[C@@H](CNC(=O)c4ccc5[nH]nnc5c4)[C@@H]3C2)n1,-6.43
O=C1CCc2cc(Nc3cc(OC4CCOCC4)c([N+](=O)[O-])cc3Cl)ccc2N1,3.49
Cc1cc(-n2nc(Cc3cc(F)cc(C(F)(F)F)c3)nc2C)ccc1C(N)=O,3.15
CNC(=O)c1ccc(Nc2ncc(C(F)(F)F)c(NCc3nccnc3N(C)S(C)(=O)=O)n2)cc1,4.13
Cc1cc(C)c(-n2ccn3nc(-c4cccnc4)cc23)cc1NC(=O)c1cc(C#N)cc(S(F)(F)(F)(F)F)c1,-2.46
CS(=O)(=O)NCC[C@H](NC(=O)c1cncc2c1cnn2-c1ccc(F)cc1)c1ccnc(S(C)(=O)=O)c1,-9.49
Cc1c(NC(=O)c2cc(C(N)=O)nc3cc(F)ccc23)c(C(F)(F)F)nn1Cc1ccc(C(C)(C)C)cc1,2.92
O=C(Nc1cnc(Oc2ccc(F)cc2)nc1)N1CCc2ncccc2[C@@H]1c1ccc(F)cc1,8.01

# Repeated from above (sample 1):
system,conditions,remaining compound
mouse EL4 tumour homogenate,"5 µM, 1 h, with: bestatin 10 µM",0.093%
"C57BL/6 CES1-/- mice, mouse plasma","20 µM, 60 min, 37 °C",94%
"mouse, EL4 tumour homogenate","5 µM, 0 h, with: pepstatin A 1.0 µM",100%
mouse intestinal homogenate,"5 µM, 0.05 h, with: Pefabloc 1 mM",22%
mouse EL4 tumour homogenate,"5 µM, 1 h, with: E64 10 µM",0.161%
mouse intestinal homogenate,"5 µM, 0.05 h, with: leupeptin 100 µM",12.1%
